Experimental data gathered from unrelated publications.
Each line is one published result; not all experiments were run side by side.
Organism: Candida albicans

| SMILES | test | test system | setting | MIC |
| --- | --- | --- | --- | --- |
| CC[C@H](C)[C@H](NC(=O)CN)C(=O)NCC(=O)N[C@@H](C)C(=O)N[C@H](C(=O)N[C@@H](CC(C)C)C(=O)N[C@@H](CCCCN)C(=O)N[C@H](C(=O)N[C@@H](CC(C)C)C(=O)N[C@H](C(=O)N[C@H](C(=O)NCC(=O)N[C@@H](CC(C)C)C(=O)N1CCC[C@H]1C(=O)N[C@@H](C)C(=O)N[C@@H](CC(C)C)C(=O)N[C@H](C(=O)N[C@@H](CO)C(=O)N[C@@H](Cc1c[nH]c2ccccc12)C(=O)N[C@H](C(=O)N[C@@H](CCCCN)C(=O)N[C@@H](CCCNC(=N)N)C(=O)N[C@@H](CCCCN)C(=O)N[C@@H](CCCNC(=N)N)C(=O)N[C@@H](CCC(N)=O)C(=O)N[C@@H](CCC(N)=O)C(N)=O)[C@@H](C)CC)[C@@H](C)CC)[C@@H](C)O)[C@@H](C)O)C(C)C)C(C)C | broth microdilution | 58288, RPMI-1640 | 48 h, 30 °C | 4 µM |
| CC[C@H](C)[C@H](NC(=O)[C@H](Cc1c[nH]c2ccccc12)NC(=O)[C@@H](NC(=O)[C@@H](NC(=O)[C@@H](NC(=O)[C@H](CCCNC(=N)N)NC(=O)[C@@H](N)CCCNC(=N)N)[C@@H](C)CC)[C@@H](C)O)[C@@H](C)CC)C(=O)N[C@H](C(=O)N[C@H](C(=O)N[C@@H](CCCNC(=N)N)C(=O)N[C@@H](CCCNC(=N)N)C(N)=O)[C@@H](C)CC)[C@@H](C)O | – | CGMCC 2.209, RPMI 1640 MOPS-buffered | 48 h, 37 °C, tested up to 128 µM | 2 µM |
| C[C@H](NC(=O)[C@H](CCCNC(=N)N)NC(=O)[C@H](Cc1c[nH]c2ccccc12)NC(=O)[C@H](CCCNC(=N)N)NC(=O)[C@H](Cc1c[nH]c2ccccc12)NC(=O)[C@H](Cc1c[nH]c2ccccc12)NC(=O)[C@H](Cc1c[nH]c2ccccc12)NC(=O)[C@H](CCCNC(=N)N)NC(=O)[C@H](Cc1c[nH]c2ccccc12)NC(=O)[C@@H](N)CCCNC(=N)N)C(N)=O | – | CGMCC 2.209 | no added salts | 8 µM |
| C#Cc1ccc(O)c(C=NNC(=O)c2ccc(COC)cc2)c1 | – | A39 | 48 h | 4 µg/mL |
| Cl.O[C@]12C=C(c3nccc4c3[nH]c3ccccc34)[C@@H]3CCN(CCCC/C=C\CC1)C[C@@]31C[C@@H]3/C=C\CCCCN3[C@H]12 | – | ATCC 90028 | – | 20 µg/mL |
| CC(=O)N1CCN(c2ccc(OCC3COC(Cn4ccnc4)(c4ccc(Cl)cc4Cl)O3)cc2)CC1 (stereo not shown) | broth microdilution | 56214 fluconazole-resistant, RPMI-1640 | 48 h, 30 °C | 128 µM |
| N=C(N)NCCC[C@H](NC(=O)[C@H](Cc1c[nH]c2ccccc12)NC(=O)[C@H](CCCNC(=N)N)NC(=O)[C@H](Cc1c[nH]c2ccccc12)NC(=O)[C@H](Cc1c[nH]c2ccccc12)NC(=O)[C@H](Cc1c[nH]c2ccccc12)NC(=O)[C@H](CCCNC(=N)N)NC(=O)[C@H](Cc1c[nH]c2ccccc12)NC(=O)[C@@H](N)CCCNC(=N)N)C(N)=O | broth microdilution | CGMCC 2.209, RPMI 1640-MOPS | 48 h, 30 °C, together with: NaCl 150 mM | 8 µM |
| CC(C)[C@H](NC(=O)[C@@H](NC(=O)[C@@H](NC(=O)[C@H](Cc1c[nH]c2ccccc12)NC(=O)[C@H](Cc1c[nH]c2ccccc12)NC(=O)[C@H](CCCNC(=N)N)NC(=O)[C@@H](N)CCCNC(=N)N)[C@@H](C)O)C(C)C)C(N)=O | – | – | – | 64 µg/mL |
| N=C(N)NCCC[C@H](NC(=O)[C@H](Cc1c[nH]c2ccccc12)NC(=O)[C@H](CCCNC(=N)N)NC(=O)[C@H](Cc1c[nH]c2ccccc12)NC(=O)[C@H](Cc1c[nH]c2ccccc12)NC(=O)[C@H](Cc1c[nH]c2ccccc12)NC(=O)[C@H](CCCNC(=N)N)NC(=O)[C@H](Cc1c[nH]c2ccccc12)NC(=O)[C@@H](N)CCCNC(=N)N)C(=O)N[C@@H](Cc1ccccc1)C(N)=O | broth microdilution | CGMCC 2.209, RPMI 1640-MOPS | 48 h, 30 °C, together with: NaCl 150 mM | 32 µM |
| CCCCCCC[C@@H]1CC(=O)N[C@H](CC(C)C)C(=O)N[C@@H](CO)C(=O)N[C@@H]([C@@H](C)O)C(=O)N[C@H](Cc2ccccc2)C(=O)N[C@@H]([C@@H](C)CC)C(=O)O1 | fungal growth, XTT | SC5314 | – | > 100 µM |
